Published values of several laboratories.
Lines come from different studies, so protocols differ. Several values in a cell are separate wells, animals, samples, runs or records. ± marks the error that the study gave.
BCHE: Cholinesterase (BCHE, Homo sapiens, UniProt P06276)
Sequence of UniProt P06276 (whole entry, looked up): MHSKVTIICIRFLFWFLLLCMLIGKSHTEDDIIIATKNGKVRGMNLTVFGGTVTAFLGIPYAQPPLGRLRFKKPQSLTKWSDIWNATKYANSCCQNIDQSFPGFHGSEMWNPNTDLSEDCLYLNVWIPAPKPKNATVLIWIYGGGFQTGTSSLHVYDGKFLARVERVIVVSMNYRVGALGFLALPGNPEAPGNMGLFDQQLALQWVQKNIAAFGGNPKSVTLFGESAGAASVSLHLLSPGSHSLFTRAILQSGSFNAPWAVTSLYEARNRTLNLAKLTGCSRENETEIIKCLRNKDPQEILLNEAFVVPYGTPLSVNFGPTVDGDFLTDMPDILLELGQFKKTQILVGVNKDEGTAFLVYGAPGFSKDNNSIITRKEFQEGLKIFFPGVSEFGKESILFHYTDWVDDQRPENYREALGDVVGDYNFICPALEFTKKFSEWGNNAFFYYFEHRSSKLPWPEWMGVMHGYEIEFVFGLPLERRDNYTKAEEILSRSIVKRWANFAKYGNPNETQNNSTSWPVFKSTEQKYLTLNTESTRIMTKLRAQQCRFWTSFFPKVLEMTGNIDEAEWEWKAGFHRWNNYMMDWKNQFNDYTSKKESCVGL
Sequence of UniProt O00408 (whole entry, looked up): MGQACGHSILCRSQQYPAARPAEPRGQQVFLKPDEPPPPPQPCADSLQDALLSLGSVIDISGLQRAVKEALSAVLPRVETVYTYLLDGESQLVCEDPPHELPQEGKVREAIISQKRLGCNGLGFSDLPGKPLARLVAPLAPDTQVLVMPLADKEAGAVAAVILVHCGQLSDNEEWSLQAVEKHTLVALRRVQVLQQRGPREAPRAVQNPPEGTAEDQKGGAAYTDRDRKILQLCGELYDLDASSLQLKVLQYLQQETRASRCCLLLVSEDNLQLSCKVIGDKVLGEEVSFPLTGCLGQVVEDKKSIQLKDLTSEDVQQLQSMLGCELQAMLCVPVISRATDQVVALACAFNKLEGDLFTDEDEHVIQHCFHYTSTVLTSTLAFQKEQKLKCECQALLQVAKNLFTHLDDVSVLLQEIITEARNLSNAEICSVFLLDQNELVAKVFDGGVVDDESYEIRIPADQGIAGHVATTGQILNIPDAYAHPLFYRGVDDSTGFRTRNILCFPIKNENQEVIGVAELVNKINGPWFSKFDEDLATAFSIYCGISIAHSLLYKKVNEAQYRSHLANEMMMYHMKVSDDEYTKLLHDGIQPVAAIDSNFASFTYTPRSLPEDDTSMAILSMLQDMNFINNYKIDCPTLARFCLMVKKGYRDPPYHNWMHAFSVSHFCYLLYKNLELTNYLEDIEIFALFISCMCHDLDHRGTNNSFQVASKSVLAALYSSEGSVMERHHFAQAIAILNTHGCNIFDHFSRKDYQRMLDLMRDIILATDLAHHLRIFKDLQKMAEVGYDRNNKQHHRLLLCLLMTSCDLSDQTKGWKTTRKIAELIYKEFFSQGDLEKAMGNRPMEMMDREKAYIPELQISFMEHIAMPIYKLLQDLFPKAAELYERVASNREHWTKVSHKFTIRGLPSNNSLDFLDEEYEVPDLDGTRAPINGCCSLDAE

CCOC(=O)C(=O)c1csc(NC=O)n1  IC50 (BCHE; inhibitor, fluorometric): 1480 ± 480 nM
CC[C@H](C)[C@@H]1NC(=O)[C@@H]2CCCN2C(=O)[C@H](CC(C)C)NC(=O)[C@H](CC(C)C)NC(=O)CNC(=O)[C@@H](NC(=O)[C@@H](NC(=O)[C@H](CC(=O)O)NC(=O)CNC(=O)[C@@H](NC(=O)[C@H](C)NC(=O)CNC(=O)[C@H](CCCCN)NC(=O)[C@H](CC(C)C)NC(=O)[C@H](CC(C)C)NC(=O)[C@H](CCCCN)NC(=O)CNC(=O)[C@@H](NC(=O)[C@@H](N)CC(C)C)C(C)C)C(C)C)C(C)C)CSSC[C@@H](C(=O)O)NC1=O  log2 fold change (RNA-seq, refers to: Adnp mRNA; mouse traumatic brain injury, frontal cortex and hippocampus; dose not given; baseline: TBI plus compound vs TBI): -1.2
COCCn1c2nc(=O)n(-c3ccccc3)c(=O)c-2nc2ccccc21  EC50 (Dengue virus 2; viral replication): 530 nM
COc1cc(Nc2ncc(F)c(Nc3ccc4c(n3)NC(=O)C(C)(C)O4)n2)cc(OC)c1OC  IC50 (PDE2A (Homo sapiens, UniProt O00408)): > 10000 nM
CCCOc1ccccc1-c1nc2sc3c(c2c(=O)[nH]1)CCN(C)C3  EC50 (Plasmodium falciparum; parasite growth, SYBR Green; 3D7 DHODH E182D; 72 h): > 12500 nM
C#CCN(C)[C@H](C)Cc1ccccc1  corridor crossing time (footprint test; MPTP-induced Parkinson's disease mouse model; 10 mg/kg, trial 3): 8.69 s and 3.5 s and 5.04 s and 3.25 s and 6.09 s and 4.89 s and 4.45 s
OC(Cn1cncn1)(Cn1cncn1)c1ccc(F)cc1F  OD600 (Saccharomyces cerevisiae; cell growth; Pdr5 deleted, empty vector; 2^-1 µg/mL): 0.05 and 0.051
O=C(O)C1=CC(=C(c2ccc(O)c(C(=O)O)c2)c2ccc(O)c(C(=O)O)c2)C=CC1=O  IC50 (Plasmodium falciparum; 7G8): 10000 nM
CCCn1c(O)nnc1SCC(=O)Nc1cc(C(F)(F)F)ccc1Cl  EC50 (Plasmodium falciparum; parasite growth; Dd2): 74.8 ± 22 nM
C[C@@H](O)[C@@H]1NC(=O)[C@H](Cc2ccccc2)NC(=O)[C@@H](Cc2ccccc2)NC(=O)[C@H]([C@@H](C)O)NC(=O)[C@@H](CCCN)NC(=O)[C@H](CCCNC(=N)N)NC(=O)[C@@H](CCCN)NC1=O  IC90 (Naegleria fowleri; trophozoites): > 16 µg/mL
Nc1ncnc2c1ncn2[C@@H]1O[C@@H]2COP(=O)(O)O[C@H]3[C@@H](O)[C@H](n4cnc5c(=O)[nH]cnc54)O[C@@H]3COP(=O)(O)O[C@H]2[C@H]1O  pathway fold enrichment (HFF-1; RNA sequencing, refers to: Signaling by Interleukins; upregulated pathway; baseline: Zika virus alone): 3.81
COc1cc(CCC[P+](c2ccccc2)(c2ccccc2)c2ccccc2)c(OC)c2c1OCO2.[I-]  GI50 (A498; SRB): -5.85 log M
Cc1ccccc1NC(=O)Nc1ccc(CC(=O)N[C@@H](CCCCNC(=O)/C=C/c2cccnc2)C(=O)N[C@@H](CCCC(=O)O)C(=O)NC2(C(=O)NCCOCCOCCOCCOCC(=O)N[C@@H](CCCCNC(=S)Nc3ccc(CCCN(CCN4CCN(CC(=O)O)CCN(CC(=O)O)CC4)CP(=O)(O)O)cc3)C(N)=O)CCCCC2)cc1 [gallium-68 labelled]  log D (shake flask; octanol/PBS; pH 7.4): -1.8 ± 0.03
CC(=O)Nc1sc(C)c(C)c1CN1CCc2ccccc2C1  EC50 (Plasmodium falciparum; parasite growth, SYBR Green; 3D7 DHODH E182D; 72 h): 604 ± 39 nM
Cc1cccc(S(=O)(=O)N2CCC[C@@H]2CCN2CCC(C)CC2)c1  IC50 (BCHE; inhibitor; with Triton): 5940 ± 1010 nM
OC(c1cc(C(F)(F)F)nc2c(C(F)(F)F)cccc12)C1CCCCN1 (stereo not shown)  IC50 (Plasmodium falciparum; HB3): 8 nM
Cc1cc(Nc2ccc(Cl)c(Cl)c2)n2nc(C)nc2n1  EC50 (Plasmodium falciparum; parasite growth): 7420 ± 6800 nM
CN(C)CCCC1(c2ccc(F)cc2)OCc2cc(C#N)ccc21 (stereo not shown)  IC50 (Plasmodium falciparum; 3D7): 10000 nM
CCCCC1(CCCC)CN(c2ccccc2)c2cc(SC)c(OCC(=O)N[C@@H](C(=O)NCC(=O)O)c3ccccc3)cc2S(=O)(=O)C1  serum LDL-C (refers to: LDL cholesterol; human, serum; 10 mg once daily, day 13): 90.6 mg/dL
COC(=O)[C@@H]1[C@H]2C[C@H]3c4[nH]c5ccccc5c4CCN3C[C@@H]2CC[C@@H]1O  IC50 (Plasmodium falciparum; W2): 2000 nM
COc1cc(F)ccc1-c1c[nH]c(C(=O)NC23CC4CC(CC(C4)C2)C3)c1  IC50 (Vero; 48 h): > 64 µg/mL
CC/C(=N\NC(=O)c1ccc(F)cc1)c1cc(Cl)cc(Cl)c1O  IC50 (Gag-Pol polyprotein, integrase with LEDGF/p75 (gag-pol, Human immunodeficiency virus 1, UniProt P12497); LEDGF/p75-integrase interaction, inhibitor, AlphaScreen): > 50000 nM
CCCN(CCC)[C@H]1CCc2c(F)ccc(O)c2C1  IC50 (Plasmodium falciparum; 3D7): 1580 nM
CC(C)[C@@H]1NC(=O)[C@@H](CC(N)=O)NC(=O)[C@H](Cc2ccccc2)NC(=O)[C@@H](CCCN)NC(=O)[C@H](CCCN)NC(=O)[C@H]([C@@H](C)O)NC(=O)[C@@H](C(C)C)NC(=O)[C@H](C(C)C)NC(=O)[C@@H]([C@H](C)O)NC(=O)[C@@H](C(C)C)NC1=O  IC50 (Acanthamoeba castellanii; trophozoites): 11.2 µg/mL
O=C(Nc1cccnn1)N1CCN([C@@H]2CCOc3cc(C(F)(F)F)ccc32)CC1  inhibition (thyroid hormone receptor; binding; 20 µM): -10%
COc1c(CCC[P+](c2ccccc2)(c2ccccc2)c2ccccc2)cc2c(c1OC)OCO2.[I-]  mean Log10TGI (NCI60 panel; SRB): -4.83 log M
COC(=O)c1c(-c2cc(OC)c(OC)c(OC)c2)c2ccc(OCc3ccccn3)cc2c(=O)n1-c1ccc(N)cc1  IC50 (Plasmodium falciparum; W2): 2510 nM
CNC(=O)c1cc(Cl)cc(C)c1NC(=O)c1cc(Br)nn1-c1ncccc1Cl  mortality (Spodoptera litura; leaf-dip; third instar larvae; 6.25 ppm, 24 h): 10%
COc1ccc(-n2ccnc2SCC(=O)Nc2cccc(C(F)(F)F)c2)c(OC)c1  EC50 (Plasmodium falciparum; parasite growth): 1570 ± 720 nM
CC(C)[C@H]1NC(=O)[C@H](Cc2ccccc2)NC(=O)CNC(=O)[C@@H](Cc2ccccc2)NC(=O)[C@H](CCC(N)=O)NC(=O)[C@@H](CCCN)NC1=O  IC50 (Naegleria fowleri; trophozoites): > 16 µg/mL
CC(CCc1ccccc1)NC(C)C(O)c1ccc(O)cc1 (stereo not shown)  IC50 (Plasmodium falciparum; W2): 2510 nM
c1ccc(C(NCCNC(c2ccccc2)c2ccccc2)c2ccccc2)cc1  inhibition (NMDA receptor, rat, Glycine site; binding; 10 µM, Eurofins selectivity panel): 5%
CC(C)[C@H]1NC(=O)[C@H](Cc2ccccc2)NC(=O)[C@@H](Cc2c[nH]c3ccccc23)NC(=O)[C@H](CCCNC(=N)N)NC(=O)[C@@H](CCCN)NC(=O)[C@H](CC(N)=O)NC1=O  IC90 (Acanthamoeba castellanii; trophozoites): > 16 µg/mL
OCCN1CCN(CC/C=C2/c3ccccc3Sc3ccc(C(F)(F)F)cc32)CC1  IC50 (Plasmodium falciparum; HB3): 3980 nM
Nc1ccn(C[C@@H](CO)OCP(=O)(O)O)c(=O)n1  infection (Fowlpox virus; viral infection; CEF; 6.25 µM; baseline: untreated): 103% and 109% and 99.3%
CCCNC(=O)c1ccnc(-c2ccc(CNC3Cc4ccccc4C3)cc2)c1  EC50 (Plasmodium falciparum; parasite growth, SYBR Green; 3D7 wild type; 72 h): 1250 ± 190 nM
C[C@H]1O[C@@H](O[C@H]2CC[C@@]3(C)[C@@H](CC[C@]4(C)[C@@H]3C=C[C@]35OC[C@@]6(CCC(C)(C)C[C@H]63)[C@@H](O)C[C@]54C)[C@]2(C)CO)[C@H](O)[C@@H](O[C@@H]2O[C@H](CO)[C@@H](O)[C@H](O)[C@H]2O)[C@H]1O  γ-GT activity (Mus musculus, pair-fed, AAV8-TBG-SIRT1 shRNA hepatic SIRT1 knockdown, plasma; oral, high dose, 5 h): 32.5 U/L and 21.9 U/L and 29.8 U/L and 27.9 U/L and 28.3 U/L and 29.3 U/L

Some of these lines once more:
Cc1cc(Nc2ccc(Cl)c(Cl)c2)n2nc(C)nc2n1  EC50 (Plasmodium falciparum; parasite growth): 7420 ± 6800 nM
CN(C)CCCC1(c2ccc(F)cc2)OCc2cc(C#N)ccc21 (stereo not shown)  IC50 (Plasmodium falciparum; 3D7): 10000 nM
CCCCC1(CCCC)CN(c2ccccc2)c2cc(SC)c(OCC(=O)N[C@@H](C(=O)NCC(=O)O)c3ccccc3)cc2S(=O)(=O)C1  serum LDL-C (refers to: LDL cholesterol; human, serum; 10 mg once daily, day 13): 90.6 mg/dL
